Experimental data of several laboratories.
HDAC1: Histone deacetylase 1 (HDAC1, Homo sapiens, UniProt Q13547)
Sequence of UniProt Q13547 (whole entry, looked up): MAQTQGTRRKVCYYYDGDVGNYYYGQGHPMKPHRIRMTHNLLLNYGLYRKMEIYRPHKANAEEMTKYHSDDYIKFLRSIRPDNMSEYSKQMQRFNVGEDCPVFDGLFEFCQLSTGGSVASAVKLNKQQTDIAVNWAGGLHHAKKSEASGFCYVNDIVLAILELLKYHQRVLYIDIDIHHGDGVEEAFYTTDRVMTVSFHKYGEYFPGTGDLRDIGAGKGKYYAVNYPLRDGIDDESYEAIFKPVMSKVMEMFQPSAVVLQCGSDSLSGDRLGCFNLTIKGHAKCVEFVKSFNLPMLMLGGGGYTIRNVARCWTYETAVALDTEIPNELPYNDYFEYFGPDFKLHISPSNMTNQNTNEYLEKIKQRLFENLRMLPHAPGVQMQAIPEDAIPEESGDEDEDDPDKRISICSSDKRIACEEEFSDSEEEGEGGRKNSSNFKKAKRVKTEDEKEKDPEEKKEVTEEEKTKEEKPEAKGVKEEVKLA
USP51: Ubiquitin carboxyl-terminal hydrolase 51 (USP51, Homo sapiens, UniProt Q70EK9)
Sequence of UniProt Q70EK9 (whole entry, looked up): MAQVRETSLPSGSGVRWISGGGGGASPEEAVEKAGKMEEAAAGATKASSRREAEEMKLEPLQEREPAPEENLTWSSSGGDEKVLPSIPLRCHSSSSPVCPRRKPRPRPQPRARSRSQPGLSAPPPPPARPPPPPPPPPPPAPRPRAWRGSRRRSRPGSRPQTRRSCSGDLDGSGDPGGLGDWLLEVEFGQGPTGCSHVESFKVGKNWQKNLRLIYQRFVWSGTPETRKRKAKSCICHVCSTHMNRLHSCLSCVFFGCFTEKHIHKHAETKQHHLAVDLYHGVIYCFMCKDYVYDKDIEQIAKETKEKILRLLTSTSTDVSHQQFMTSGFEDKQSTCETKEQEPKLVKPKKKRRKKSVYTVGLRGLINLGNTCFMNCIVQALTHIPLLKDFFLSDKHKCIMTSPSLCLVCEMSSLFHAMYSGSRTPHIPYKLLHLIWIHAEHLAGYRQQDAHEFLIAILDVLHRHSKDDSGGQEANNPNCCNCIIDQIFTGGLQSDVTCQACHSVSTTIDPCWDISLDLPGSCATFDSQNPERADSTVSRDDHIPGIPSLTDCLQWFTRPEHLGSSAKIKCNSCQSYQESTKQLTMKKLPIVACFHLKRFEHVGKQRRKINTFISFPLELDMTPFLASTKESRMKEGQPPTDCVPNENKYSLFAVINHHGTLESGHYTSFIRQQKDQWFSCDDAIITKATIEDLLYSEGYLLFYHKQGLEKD
HDAC8: Histone deacetylase 8 (HDAC8, Homo sapiens, UniProt Q9BY41)
Sequence of UniProt Q9BY41 (whole entry, looked up): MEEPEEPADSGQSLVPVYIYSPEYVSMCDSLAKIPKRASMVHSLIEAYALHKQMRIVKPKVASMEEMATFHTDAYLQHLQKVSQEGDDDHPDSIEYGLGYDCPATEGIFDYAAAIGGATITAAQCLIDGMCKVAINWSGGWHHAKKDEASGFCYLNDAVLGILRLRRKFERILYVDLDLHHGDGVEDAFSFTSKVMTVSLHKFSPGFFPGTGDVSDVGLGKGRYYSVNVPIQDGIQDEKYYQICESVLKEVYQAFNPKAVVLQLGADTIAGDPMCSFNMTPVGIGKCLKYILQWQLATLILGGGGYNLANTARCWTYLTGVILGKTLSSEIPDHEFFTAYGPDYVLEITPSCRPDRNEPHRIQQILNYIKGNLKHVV
PTGS2: Prostaglandin G/H synthase 2 (PTGS2, Homo sapiens, UniProt P35354)
Sequence of UniProt P35354 (whole entry, looked up): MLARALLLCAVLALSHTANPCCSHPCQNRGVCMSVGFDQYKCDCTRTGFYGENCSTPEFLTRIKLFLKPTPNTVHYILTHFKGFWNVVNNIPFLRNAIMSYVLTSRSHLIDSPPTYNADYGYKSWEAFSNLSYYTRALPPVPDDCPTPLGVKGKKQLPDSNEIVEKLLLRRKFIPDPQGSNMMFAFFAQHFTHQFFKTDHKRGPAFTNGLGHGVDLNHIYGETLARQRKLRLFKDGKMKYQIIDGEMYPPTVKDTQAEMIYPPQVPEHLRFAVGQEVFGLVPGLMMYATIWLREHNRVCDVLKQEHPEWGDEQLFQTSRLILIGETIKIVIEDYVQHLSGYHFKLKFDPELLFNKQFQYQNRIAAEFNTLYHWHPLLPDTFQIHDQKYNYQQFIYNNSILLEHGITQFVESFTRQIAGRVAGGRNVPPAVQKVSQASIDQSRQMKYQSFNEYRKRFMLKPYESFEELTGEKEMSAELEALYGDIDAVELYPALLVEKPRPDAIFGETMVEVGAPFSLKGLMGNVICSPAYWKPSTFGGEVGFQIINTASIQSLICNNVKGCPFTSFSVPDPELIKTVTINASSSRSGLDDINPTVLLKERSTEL
SLC6A4: Sodium-dependent serotonin transporter (SLC6A4, Homo sapiens, UniProt P31645)
SIRT6: NAD-dependent protein deacylase sirtuin-6 (SIRT6, Homo sapiens, UniProt Q8N6T7)
PDE10A: cAMP and cAMP-inhibited cGMP 3',5'-cyclic phosphodiesterase 10A (PDE10A, Homo sapiens, UniProt Q9Y233)
Sequence of UniProt Q9Y233 (whole entry, looked up): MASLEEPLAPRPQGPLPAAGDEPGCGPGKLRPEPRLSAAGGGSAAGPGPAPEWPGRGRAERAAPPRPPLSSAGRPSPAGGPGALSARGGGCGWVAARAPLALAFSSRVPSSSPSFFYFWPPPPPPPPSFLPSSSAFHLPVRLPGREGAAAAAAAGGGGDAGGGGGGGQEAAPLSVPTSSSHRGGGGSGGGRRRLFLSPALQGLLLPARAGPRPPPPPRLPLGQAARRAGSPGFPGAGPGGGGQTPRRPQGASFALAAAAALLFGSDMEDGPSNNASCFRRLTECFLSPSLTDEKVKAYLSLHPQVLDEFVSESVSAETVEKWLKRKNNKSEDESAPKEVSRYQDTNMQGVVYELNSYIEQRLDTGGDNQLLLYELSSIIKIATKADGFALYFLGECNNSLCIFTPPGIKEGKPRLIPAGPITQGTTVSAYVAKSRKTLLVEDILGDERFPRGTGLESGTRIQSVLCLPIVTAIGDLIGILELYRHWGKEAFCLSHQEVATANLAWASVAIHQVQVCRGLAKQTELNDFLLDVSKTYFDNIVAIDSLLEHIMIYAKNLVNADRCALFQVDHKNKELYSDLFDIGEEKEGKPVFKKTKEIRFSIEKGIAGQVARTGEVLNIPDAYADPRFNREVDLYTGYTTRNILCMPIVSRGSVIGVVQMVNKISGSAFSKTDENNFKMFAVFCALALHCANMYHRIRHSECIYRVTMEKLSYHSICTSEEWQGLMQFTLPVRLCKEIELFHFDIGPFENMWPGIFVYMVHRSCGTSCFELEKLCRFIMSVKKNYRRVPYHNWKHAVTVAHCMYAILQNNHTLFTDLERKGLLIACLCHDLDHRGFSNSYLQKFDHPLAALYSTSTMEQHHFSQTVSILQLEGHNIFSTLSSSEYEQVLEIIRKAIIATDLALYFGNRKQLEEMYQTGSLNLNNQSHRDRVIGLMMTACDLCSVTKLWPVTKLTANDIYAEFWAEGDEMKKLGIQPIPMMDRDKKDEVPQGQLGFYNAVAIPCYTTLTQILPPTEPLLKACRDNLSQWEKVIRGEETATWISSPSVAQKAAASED
CDK5 with p35: Cyclin-dependent kinase 5, with p35 (CDK5, Homo sapiens, UniProt Q00535)
Sequence of UniProt Q00535 (whole entry, looked up): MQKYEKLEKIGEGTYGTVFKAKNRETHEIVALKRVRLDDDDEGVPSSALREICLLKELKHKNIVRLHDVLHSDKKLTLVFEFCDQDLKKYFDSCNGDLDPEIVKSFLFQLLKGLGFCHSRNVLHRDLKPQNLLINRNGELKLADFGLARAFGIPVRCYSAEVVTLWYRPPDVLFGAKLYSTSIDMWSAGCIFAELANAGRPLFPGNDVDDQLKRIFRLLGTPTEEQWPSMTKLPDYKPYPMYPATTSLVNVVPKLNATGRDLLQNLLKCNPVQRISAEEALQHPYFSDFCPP
KCNA1: Potassium voltage-gated channel subfamily A member 1 (KCNA1, Homo sapiens, UniProt Q09470)
Sequence of UniProt P10721 (whole entry, unmodified, looked up): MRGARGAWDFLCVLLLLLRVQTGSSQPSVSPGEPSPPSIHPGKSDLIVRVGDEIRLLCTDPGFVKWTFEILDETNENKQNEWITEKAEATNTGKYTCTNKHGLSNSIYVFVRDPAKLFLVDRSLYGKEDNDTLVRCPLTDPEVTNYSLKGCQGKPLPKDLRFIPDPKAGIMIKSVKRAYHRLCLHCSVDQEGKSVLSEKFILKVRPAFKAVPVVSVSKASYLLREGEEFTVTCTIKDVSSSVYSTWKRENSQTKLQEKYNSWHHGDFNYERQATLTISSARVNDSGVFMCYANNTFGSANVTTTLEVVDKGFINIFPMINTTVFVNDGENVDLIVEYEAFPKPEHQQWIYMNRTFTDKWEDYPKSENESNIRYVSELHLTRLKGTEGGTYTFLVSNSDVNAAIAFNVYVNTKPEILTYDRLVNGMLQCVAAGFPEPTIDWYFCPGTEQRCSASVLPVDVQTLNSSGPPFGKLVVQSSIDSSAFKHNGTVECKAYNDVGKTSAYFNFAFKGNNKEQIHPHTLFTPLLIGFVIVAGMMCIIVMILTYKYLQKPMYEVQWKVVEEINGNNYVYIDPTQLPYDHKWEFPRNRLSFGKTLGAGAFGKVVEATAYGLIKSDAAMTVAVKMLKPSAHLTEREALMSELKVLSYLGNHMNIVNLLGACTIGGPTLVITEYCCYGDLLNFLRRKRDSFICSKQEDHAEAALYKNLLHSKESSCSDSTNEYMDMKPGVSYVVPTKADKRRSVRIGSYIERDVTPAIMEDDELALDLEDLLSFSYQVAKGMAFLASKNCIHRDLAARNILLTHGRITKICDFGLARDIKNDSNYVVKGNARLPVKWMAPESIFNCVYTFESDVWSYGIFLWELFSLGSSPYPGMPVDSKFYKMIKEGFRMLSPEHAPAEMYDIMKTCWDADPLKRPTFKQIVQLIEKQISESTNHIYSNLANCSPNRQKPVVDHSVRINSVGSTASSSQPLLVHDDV
Sequence of UniProt Q09470 (whole entry, looked up): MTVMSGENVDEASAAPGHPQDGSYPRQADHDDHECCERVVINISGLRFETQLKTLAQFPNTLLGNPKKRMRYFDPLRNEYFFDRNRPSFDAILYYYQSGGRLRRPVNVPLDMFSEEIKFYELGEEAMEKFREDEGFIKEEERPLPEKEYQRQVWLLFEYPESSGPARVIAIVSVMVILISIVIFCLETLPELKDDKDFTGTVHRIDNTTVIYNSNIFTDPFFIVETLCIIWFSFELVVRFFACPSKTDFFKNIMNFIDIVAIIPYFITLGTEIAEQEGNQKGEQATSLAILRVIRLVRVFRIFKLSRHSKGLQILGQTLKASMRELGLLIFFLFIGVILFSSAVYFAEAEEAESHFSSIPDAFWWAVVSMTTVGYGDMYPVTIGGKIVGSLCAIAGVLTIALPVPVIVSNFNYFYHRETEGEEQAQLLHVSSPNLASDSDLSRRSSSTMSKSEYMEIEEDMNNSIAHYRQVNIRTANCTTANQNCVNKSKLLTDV

The inhibition of O=C(NO)c1cccc(OS(=O)(=O)Oc2ccc(Oc3ccccc3)cc2)c1 is reported as 28% (HDAC1; enzyme activity, inhibitor, fluorescence; 10 µM).
With C#CC1(O)CC[C@H]2[C@@H]3CCC4=CC(=O)CC[C@@H]4[C@H]3CC[C@@]21CC (mixture of isomers) the inhibition was 36% (USP51; enzyme activity, inhibitor; 5 µM).
For Cc1ncsc1-c1ccc(CNC(=O)[C@@H]2C[C@@H](O)CN2C(=O)[C@@H](NC(=O)CCCCCCCCNC(=O)CN2CCN(C(=O)c3ccc(Nc4nc(C5CC5)cn5c(-c6cn[nH]c6)cnc45)c(F)c3)CC2)C(C)(C)C)cc1, the inhibition was over 65% (RIOK2 (Homo sapiens, UniProt Q9BVS4); cell-free assay, competition with immobilised ligand; 1 µM).
With CNc1ncc2c(/C=C/C(=O)N3CCC(OC)CC3)nn(Cc3cccc(C(F)(F)F)c3)c2n1 the remaining activity was 87% (NEK9 (Homo sapiens, UniProt Q8TD19); enzyme activity, inhibitor, radiometric; 1 µM).
Cc1c(OS(=O)(=O)Oc2ccc(C(C)(C)C)cc2)cccc1C(=O)NO gave an inhibition of 11% (HDAC8; enzyme activity, inhibitor, fluorescence; 10 µM).
For O=C(O)c1ccc(O)cc1, the inhibition was 8.14% (PTGS2; enzyme activity, inhibitor; 0.24 µg/mL).
For CCOC(=O)[C@@]12C[C@@H]1[C@@H](n1cnc3c(NCCCCCc4ccccc4)nc(C#Cc4ccccc4)nc31)[C@H](O)[C@@H]2O, the inhibition was 17% (SLC6A4; ligand displacement, radioligand; 10 µM).
With O=C(O)/C=C/c1ccc(O)c(O)c1 the inhibition was 47% (USP51; enzyme activity, inhibitor; 5 µM).
With N#Cc1ccc(CONC(=O)c2ccc(C(N)=O)cc2)cc1 the inhibition was 75.4% (SIRT6; enzyme activity, inhibitor, fluorescence; 100 µM).
COc1ccc(-c2cccc(Cc3ncnc4cc(OC)c(OC)cc34)c2)cc1 gave an inhibition of 79% (PDE10A; enzyme activity, inhibitor, FP; 0.1 µM).
With CC[C@H](C)[C@H](NC(=O)[C@H](CCC(N)=O)NC(=O)[C@@H](NC(=O)[C@H](CCSC)NC(=O)[C@H](CCCCN)NC(=O)[C@H](CO)NC(=O)[C@@H](NC(=O)[C@H](CCSC)NC(=O)[C@H](CC(C)C)NC(=O)[C@H](CC(N)=O)NC(=O)[C@@H](NC(=O)[C@@H](NC(=O)[C@H](CO)NC(=O)[C@H](CC(C)C)NC(=O)[C@H](C)NC(=O)[C@H](CCCNC(=N)N)NC(=O)[C@H](CCC(=O)O)NC(=O)[C@H](Cc1ccc(O)cc1)NC(=O)[C@H](Cc1ccccc1)NC(=O)[C@H](C)NC(=O)[C@H](CC(N)=O)NC(=O)[C@@H](N)CCCCN)[C@@H](C)CC)[C@@H](C)CC)[C@@H](C)O)C(C)C)C(=O)N[C@@H](CC(N)=O)C(=O)N[C@H](C(=O)O)C(C)C the inhibition was 14% (CDK5 with p35; enzyme activity, inhibitor, radiometric; 10 µM).
Cc1cc(OS(=O)(=O)Oc2ccc(C(C)(C)C)cc2C)cc(C(=O)NO)c1 has an inhibition of 22% (HDAC6 (Homo sapiens, UniProt Q9UBN7); enzyme activity, inhibitor, fluorescence; 10 µM).
The inhibition of COc1cc([C@@H]2c3cc4c(cc3[C@H](O)[C@H]3COC(=O)[C@@H]23)OCO4)cc(OC)c1OC is reported as 44% (USP51; enzyme activity, inhibitor; 5 µM).
The inhibition of Nc1c(Br)cc(Br)cc1CN[C@H]1CC[C@H](O)CC1 is reported as -8.92% (KCNA1; ion current, inhibitor, patch clamp; 3 µM).
With COc1cc(-c2cccc(Cc3ncnc4cc(OC)c(OC)cc34)c2)ccn1 the inhibition was 74% (PDE10A; enzyme activity, inhibitor, FP; 0.1 µM).
For Cc1cc(OS(=O)(=O)Oc2cccc(C(C)(C)C)c2)cc(C(=O)NO)c1, the inhibition was 8% (HDAC1; enzyme activity, inhibitor, fluorescence; 5 µM).
For Cc1ccc(N(O)N=Nc2ccc(S(=O)(=O)Nc3onc(C)c3C)cc2)cc1, the inhibition was 84.9% (ABTS scavenging; 180 µg/mL).
Cc1c(OS(=O)(=O)Oc2ccc(Br)cc2)cccc1C(=O)NO has an inhibition of 22% (HDAC8; enzyme activity, inhibitor, fluorescence; 10 µM).
The inhibition of COc1cc([C@H]2OC[C@H]3[C@@H]2CO[C@@H]3c2cc(OC)c(O)c(OC)c2)cc(OC)c1O is reported as 100% (PTGS2; enzyme activity, inhibitor; 7.81 µg/mL).
With CC[C@H](C)[C@H](NC(=O)[C@H](CCC(N)=O)NC(=O)[C@H](CC(C)C)NC(=O)[C@H](CCSC)NC(=O)[C@H](CCCCN)NC(=O)[C@H](CO)NC(=O)[C@H](CO)NC(=O)[C@H](CCSC)NC(=O)[C@H](CC(C)C)NC(=O)[C@H](CC(N)=O)NC(=O)[C@@H](NC(=O)[C@@H](NC(=O)[C@H](CO)NC(=O)[C@H](CC(C)C)NC(=O)[C@H](CS)NC(=O)[C@H](CCCNC(=N)N)NC(=O)[C@H](CC(=O)O)NC(=O)[C@H](Cc1c[nH]c2ccccc12)NC(=O)[C@H](Cc1ccccc1)NC(=O)[C@H](C)NC(=O)[C@H](CCC(=O)O)NC(=O)[C@@H](N)CCCCN)C(C)C)[C@@H](C)CC)C(=O)N[C@@H](CC(N)=O)C(=O)N[C@@H](C)C(=O)O the inhibition was -2% (CDK5 with p35; enzyme activity, inhibitor, radiometric; 1 µM).
For COc1c(O)cc2c(c1O)[C@@H]1O[C@H](CO)[C@@H](O)[C@H](O)[C@H]1OC2=O, the inhibition was 0% (USP51; enzyme activity, inhibitor; 5 µM).
The inhibition of C[C@H]1O[C@H](O[C@H]2[C@H](O)[C@@H](O)[C@@H](O[C@H]3[C@H](O)[C@@H](O)C(O)O[C@@H]3CO)O[C@@H]2CO)[C@H](O)[C@@H](O)[C@@H]1N[C@H]1C=C(CO)[C@@H](O)[C@H](O)[C@H]1O (stereo partly shown) is reported as 58.5% (MAL12 (Saccharomyces cerevisiae S288c, UniProt P53341); enzyme activity, inhibitor, absorbance; 200 µg/mL).
The inhibition of O=[N+]([O-])c1cccc(NC(=S)NN=Cc2ccc(N3CCCCC3)cc2)c1 is reported as 90.8% (DHFR (Homo sapiens, UniProt P00374); enzyme activity, inhibitor; 500 µM).
The inhibition of CN1CC(Oc2cnc(C#N)cc2-c2ccn3nc(NC(=O)C4CC4)cc3c2)C1 is reported as 7.5% (IKBKE (Homo sapiens, UniProt Q14164); enzyme activity, inhibitor; 1 µM).
For Cc1cc([C@@H](C)Nc2ccccc2C(=O)O)c2nc(N3CCC(F)(F)CC3)c(C#N)c(=O)n2c1, the remaining binding was 100% (AKT1 (Homo sapiens, UniProt P31749); binding, competition with immobilised ligand; 10 µM).
The remaining binding of C1=C/COCc2cc(ccc2OCCN2CCCC2)Nc2nccc(n2)-c2cccc(c2)COC/1 is reported as 7% (KIT (Homo sapiens, UniProt P10721); binding; 0.1 µM).
For COc1c2ccoc2cc2oc(=O)ccc12, the inhibition was 4% (USP51; enzyme activity, inhibitor; 5 µM).
For COc1ccc(Cc2ncnc3ccccc23)cc1OC, the inhibition was 21% (PDE10A; enzyme activity, inhibitor, FP; 0.1 µM).
Cc1cc(OS(=O)(=O)Oc2ccc(C(C)C)cc2)cc(C(=O)NO)c1 has an inhibition of 7% (HDAC1; enzyme activity, inhibitor, fluorescence; 5 µM).
The inhibition of CC(C)[C@@H]1CC[C@@H](C)C[C@H]1O is reported as 18% (USP51; enzyme activity, inhibitor; 5 µM).
For COc1cc(-c2cncc3c2CN(C)Cc2cc(N4CCNCC4)ccc2-3)cc(OC)c1OC, the remaining activity was 106% (CAMK1D (Homo sapiens, UniProt Q8IU85); enzyme activity, inhibitor; 1 µM).
C=CC(=O)N1CCC(COCC(=O)N2CCN(c3nc(-c4cnc(N)nc4C(F)F)nc(N4CCOC[C@@H]4C)n3)CC2)CC1 gave a remaining binding of 95% (NTRK2 (Homo sapiens, UniProt Q16620); binding, competition with immobilised ligand; 1 µM).
The inhibition of CCCN(O)N=Nc1ccc(S(=O)(=O)Nc2cc(C)on2)cc1 is reported as 33.8% (ABTS scavenging; 240 µg/mL).
COc1cc(-c2cc(=O)c3c(O)cc(O)cc3o2)ccc1O has an inhibition of 100% (PTGS2; enzyme activity, inhibitor; 31.25 µg/mL).
For COc1ccc(Cl)cc1-c1cc(=O)[nH]c(=S)n1CC(N)=O, the inhibition was 95.2% (Myeloperoxidase (MPO, Homo sapiens, UniProt P05164); enzyme activity, inhibitor, fluorescence; 1.667 µM).
COc1ccc(-c2cc(=O)c3c(O)cc(O[C@@H]4O[C@H](CO)[C@@H](O)[C@H](O)[C@H]4O)cc3o2)cc1O gave an inhibition of 51.6% (PTGS2; enzyme activity, inhibitor; 0.49 µg/mL).
O=C(NOCc1ccc(C(F)(F)F)cc1)c1ccc(-c2ncc[nH]2)cc1 has an inhibition of 14.6% (SIRT6; enzyme activity, inhibitor, fluorescence; 100 µM).
For CC12CC3CC(C)(C1)CC(N)(C3)C2, the inhibition was 19.5% (KCNA1; ion current, inhibitor, patch clamp; 10 µM).
With C=C[C@@]1(C)C=C2CC[C@@H]3[C@](C)(CCC[C@@]3(C)C(=O)O)[C@H]2CC1 the inhibition was 63.4% (PTGS2; enzyme activity, inhibitor; 7.81 µg/mL).
With CNc1nc(C#Cc2ccc(Cl)s2)nc2c1ncn2[C@H]1[C@H](O)[C@H](O)[C@]2(CC#N)C[C@H]12 the inhibition was 4% (SLC6A4; ligand displacement, radioligand; 10 µM, cell membranes).
NC(=O)c1ccccc1O gave an inhibition of 4% (USP51; enzyme activity, inhibitor; 5 µM).
Cc1cc(O)c(-c2ccc([C@@H](C)CN(C)C)cc2)c2c1[nH]c(=O)c1sccc12 has an inhibition of 0.734% (FER (Homo sapiens, UniProt P16591); enzyme activity, inhibitor; 0.1 µM, lysate).
O=c1ccc2ccc(O)c(O)c2o1 has an inhibition of 93% (USP51; enzyme activity, inhibitor; 5 µM).
Cc1c(OS(=O)(=O)Oc2cccc(C(C)C)c2)cccc1C(=O)NO has an inhibition of 14% (HDAC8; enzyme activity, inhibitor, fluorescence; 10 µM).
With NC/C(=C\F)COc1cccc(Cn2c(=S)[nH]c(=O)c3[nH]cnc32)c1 the inhibition was under 50% (OPRD1 (Homo sapiens, UniProt P41143); ligand displacement, radioligand; 10 µM).
With CCCCC(=O)Nc1ccc(-c2ccc3ncn(CCC)c(=O)c3c2)cn1 the remaining binding was 100% (KIT (Homo sapiens, UniProt P10721, D816H); binding, competition with immobilised ligand; 0.5 µM).
CC(C)c1[nH]c2nc(N)nn2c(=O)c1Cc1ccc(Cl)c(Cl)c1 has an inhibition of 80% (CCR5 (Homo sapiens, UniProt P51681); β-arrestin recruitment, antagonist; 1 µM).
With O=c1cc(-c2ccc(O)c(O)c2)oc2cc(O)cc(O)c12 the inhibition was 100% (PTGS2; enzyme activity, inhibitor; 31.25 µg/mL).
The inhibition of Cc1c(OS(=O)(=O)Oc2ccc(C(F)(F)F)cc2)cccc1C(=O)NO is reported as 7% (HDAC1; enzyme activity, inhibitor, fluorescence; 5 µM).

For quick reference, copied from above:
For COc1ccc(Cc2ncnc3ccccc23)cc1OC, the inhibition was 21% (PDE10A; enzyme activity, inhibitor, FP; 0.1 µM).
Cc1cc(OS(=O)(=O)Oc2ccc(C(C)C)cc2)cc(C(=O)NO)c1 has an inhibition of 7% (HDAC1; enzyme activity, inhibitor, fluorescence; 5 µM).
The inhibition of CC(C)[C@@H]1CC[C@@H](C)C[C@H]1O is reported as 18% (USP51; enzyme activity, inhibitor; 5 µM).
For COc1cc(-c2cncc3c2CN(C)Cc2cc(N4CCNCC4)ccc2-3)cc(OC)c1OC, the remaining activity was 106% (CAMK1D (Homo sapiens, UniProt Q8IU85); enzyme activity, inhibitor; 1 µM).
C=CC(=O)N1CCC(COCC(=O)N2CCN(c3nc(-c4cnc(N)nc4C(F)F)nc(N4CCOC[C@@H]4C)n3)CC2)CC1 gave a remaining binding of 95% (NTRK2 (Homo sapiens, UniProt Q16620); binding, competition with immobilised ligand; 1 µM).
